Experimental data gathered from unrelated publications.
Lines come from different studies, so protocols differ.

For `Cc1ncc2n1-c1ccc(Cl)cc1C(c1ccccc1F)=NC2`, “subjects with serious TEAE” read 0% (human; oral, dose not given).
`NCCCC[C@@H]1NC(=O)[C@@H](Cc2c[nH]c3ccccc23)NC(=O)[C@H](c2ccccc2)NC(=O)[C@@H]2C[C@@H](OC(=O)NCCN)CN2C(=O)[C@H](Cc2ccccc2)NC(=O)[C@H](Cc2ccc(OCc3ccccc3)cc2)NC1=O` — result for “subjects with adverse event Headache”: 18% (healthy human volunteers; 600 µg twice daily).
For `CNC(=O)n1ccc2cc(Oc3ccnc(NC(=O)c4ccc(C5CCN(CCO)CC5)cc4)c3)c(OCCOC)cc21`, “subjects with TEAEs” read 28.6% (healthy human; oral, 35 mg).
`Cn1c(-c2ccc(C(N)=O)cc2F)nnc1C(C)(C)Oc1c(F)cc(Cl)cc1F`: “subjects with drug-related TEAE” 16.7% (human; oral, 30 mg, single ascending dose).
For `C=C(C)[C@@H]1CCC(C)=C[C@H]1c1c(O)cc(CCCCC)cc1O`, “subjects with Chromaturia” read 0% (human; 750 mg, trial 17074, added: rifampicin 600 mg).
`COc1ccc2c(c1)[C@]13CCCC[C@@H]1[C@H](C2)N(C)CC3`: “subjects with serious treatment-related TEAE” 0% (human; oral, dose not given).
`CC(=O)N(C)[C@H]1CCN(C(=O)c2cnc3c(c2)C[C@](C)(c2ccc(F)cc2)N3)C1`: “subjects with serious AEs” 0% (healthy male human; oral, 60 mg once daily, multiple rising dose, added: midazolam).
For `Cc1ncc2n1-c1ccc(Cl)cc1C(c1ccccc1F)=NC2`, “subjects with ≥1 adverse events” read 39.1% (healthy humans; oral, dose not given).
For `CC[C@H]1[C@@H](O)[C@@H]2[C@H](CC[C@]3(C)[C@@H]([C@H](C)CCNC(=O)NS(=O)(=O)c4ccc(C(C)(C)C)cc4)CC[C@@H]23)[C@@]2(C)CC[C@@H](O)C[C@@H]12`, “subjects with TEAEs” read 50% (human; concentration not given, study, added: fluconazole).
`C[C@]1(CO)Cc2ncn(-c3ccc(C#N)c(Cl)c3)c2C(=O)O1`: “subjects with drug-related TEAEs” 11.1% (investigator-assessed; human; 10 mg multiple doses, fasted).
